Measurements collected from several papers.
A part holds a random share of what one study measured. Several values in a cell are separate wells, animals, samples, runs or records. pIC50: −log10 of the molar value.

Sample 1 — method: CCK-8; quantity: survival
SMILES: CC(C)S(=O)(=O)c1cc2c(Nc3ccc4sc(C5CCCC5)nc4c3)ccnc2cc1OCCO
L929 RIPK3-/- reexpressing RIPK3 K51A; 25 µM, together with: zVAD: 50.6% and 37.8% and 39.2% and 37.2% and 40.3%
L929 RIPK3-/- reexpressing RIPK3 K51A/R69H; 6.25 µM: 95.6% and 92.5% and 96% and 88.2%
L929 RIPK3-/- reexpressing RIPK3 K51A/R69H; 3.125 µM, together with: zVAD: 87.6% and 92.3% and 96.5% and 91.5% and 95.9%
L929 RIPK3-/- reexpressing RIPK3 K51A/R69H; 12.5 µM, together with: zVAD: 89.2% and 85.4% and 85% and 85.2% and 84.7%
L929 RIPK3-/- reexpressing RIPK3 K51A/R69H; 1.563 µM, together with: zVAD: 89.1% and 94% and 96.1%

Sample 2 — cell line: mouse MPNST tumor cells; method: high-content immunofluorescence imaging; measured: nuclear SOX9; concentration: 10 µM; time: 12 h; notes: mean of 2 replicates; baseline: DMSO control; direction: higher = more nuclear SOX9; quantity: nuclear SOX9 intensity
CC(Cc1ccc(O)cc1)NCC(O)c1cc(O)cc(O)c1 (stereo not shown): 112 % of DMSO
CCCC(C)(COC(N)=O)COC(=O)NC(C)C (stereo not shown): 89.5 % of DMSO
O=C(CCCN1CCC2(CC1)C(=O)NCN2c1ccccc1)c1ccc(F)cc1: 146 % of DMSO and 149 % of DMSO
c1ccc(C2CC2)c(OCC2=NCCN2)c1: 103 % of DMSO
CC(=O)OCC(=O)[C@H]1CC[C@H]2[C@@H]3CC[C@H]4C[C@H](O)CC[C@]4(C)[C@H]3C(=O)C[C@]12C: 103 % of DMSO
CN1CCC2(C)c3cc(O)ccc3N(C)C12 (single isomer, unassigned; (-)): 105 % of DMSO

Sample 3 — organism: Sarcocystis neurona; observed: parasite growth; concentration: 10 µM; notes: first screen; baseline: untreated; quantity: log2 fold change
COc1ccc2[nH]cc(CCN)c2c1: 0.26
CC(C)CC(N(C)C)C1(c2ccc(Cl)cc2)CCC1.Cl (stereo not shown): -0.0216
CCCCC/C=C\C/C=C\C/C=C\C/C=C\CCCC(=O)Nc1ccc(O)cc1: -0.18
Cl.Oc1cc2c(cc1O)[C@H]1c3ccccc3CN[C@@H]1CC2: 0.14
CNC(=O)Oc1ccc2c(c1)[C@]1(C)CCN(C)[C@@H]1N2C.CNC(=O)Oc1ccc2c(c1)[C@]1(C)CCN(C)[C@@H]1N2C.O=S(=O)(O)O: -0.31
Cl.O=C1[C@H]2CCCC[C@H]2C(=O)N1CCCCN1CCN(c2nsc3ccccc23)CC1: -1.19
CCC(COC(=O)c1cc(OC)c(OC)c(OC)c1)(c1ccccc1)N(C)C.O=C(O)/C=C\C(=O)O (stereo not shown): 0.27
CN(C)C(=O)Oc1ccc[n+](C)c1.[Br-]: -0.0662
C[C@]12CC[C@H]3[C@@H](CCC4=CC(=O)CC[C@@H]43)[C@@H]1CC[C@@H]2O: -0.17
CN1CC[C@@]23CCCC[C@@H]2[C@@H]1Cc1ccc(O)cc13.O=C(O)C(O)C(O)C(=O)O: 0.14
Br.COc1ccc2c(c1)[C@]13CCCC[C@@H]1[C@H](C2)N(C)CC3: 0.15

Sample 4 — action: antagonist; quantity: pIC50
Target: Beta-1 adrenergic receptor (ADRB1, Homo sapiens, UniProt P08588)
Chain of UniProt P08588 (whole entry, looked up): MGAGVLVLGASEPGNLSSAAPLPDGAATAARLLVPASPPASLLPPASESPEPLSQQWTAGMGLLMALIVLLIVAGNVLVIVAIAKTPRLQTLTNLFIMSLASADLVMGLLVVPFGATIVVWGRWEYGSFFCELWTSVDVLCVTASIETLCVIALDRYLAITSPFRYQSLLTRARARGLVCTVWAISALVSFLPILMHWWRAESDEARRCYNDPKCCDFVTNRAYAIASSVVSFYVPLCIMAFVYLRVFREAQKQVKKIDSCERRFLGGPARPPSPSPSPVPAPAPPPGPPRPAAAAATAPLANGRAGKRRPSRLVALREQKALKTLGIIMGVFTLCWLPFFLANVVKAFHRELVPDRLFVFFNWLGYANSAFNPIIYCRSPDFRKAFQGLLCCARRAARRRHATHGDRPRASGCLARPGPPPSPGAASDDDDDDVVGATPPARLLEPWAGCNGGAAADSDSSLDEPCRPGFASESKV
CC(C)(C)NCC(O)c1cc(Br)c(N)c(Br)c1 (stereo not shown): ≤ 4.00
C[C@@H](O)[C@H](NC(=O)[C@H]1NC(=O)[C@H]([C@@H](C)O)NC(=O)[C@H](CCCN)NC(=O)[C@@H](Cc2c[nH]c3ccccc23)NC(=O)[C@H](Cc2ccc(O)cc2)NC(=O)[C@@H](NC(=O)[C@H](N)Cc2ccccc2)CSSC1(C)C)C(N)=O: ≤ 4.00
COc1ccc(C[C@@H](C)NC[C@H](O)c2ccc(O)c3[nH]c(=O)ccc23)cc1: ≤ 4.00

Repeated from above (sample 2):
CC(Cc1ccc(O)cc1)NCC(O)c1cc(O)cc(O)c1 (stereo not shown): 112 % of DMSO
CCCC(C)(COC(N)=O)COC(=O)NC(C)C (stereo not shown): 89.5 % of DMSO
